Published values pooled from the literature.
Parts stem from different laboratories: compare values within a part only.

Study 1 — method: protein binding microarray; molecule type: double-stranded DNA, one strand shown; matrix: in vitro; tested at: not given; baseline: not given; reading: higher = stronger binding; quantity: E-score
Target: Histone acetyltransferase KAT6A, winged helix 1, GST fusion (KAT6A, Homo sapiens, UniProt Q92794, residues 1-85)
Setting: 8-mer, flanks averaged, mean of 2 arrays, mostly near background
Target sequence (chain): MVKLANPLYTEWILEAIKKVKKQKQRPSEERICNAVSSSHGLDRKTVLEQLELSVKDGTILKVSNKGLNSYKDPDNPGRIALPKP
AAGGCTCG: -0.0931
CGCTAGAG: 0.174
ACGTGACA: -0.225
CCACTTCG: -0.096
GCTAAACC: 0.0629
GCTCGGAC: 0.188
CACGCTCG: 0.0273
GACGATAC: 0.0334
AGGTGGAC: -0.232
CACTTCGA: -0.197
GCAATAAC: -0.00732
ACTGGGAC: -0.151
ACAGTGGC: -0.0514
CTACTCTC: -0.159
CTTACGGC: 0.397
GCGGGCCA: 0.287
ACTGCGTG: 0.00647
CTCTCCGA: 0.14
GATGTTAC: 0.114
CAATCTAA: -0.0626
GGCGTACA: 0.147
AGCGGAGG: 0.115
CCTGCTAG: -0.081

Study 2 — method: RNA Bind-n-Seq; molecule type: RNA; matrix: in vitro; tested at: 200 nM; setting: whole 134-nt RNA, ends assumed; together with: 150 mM KCl; baseline: input library; reading: higher = stronger binding; quantity: log2 enrichment
Target: Fragile X messenger ribonucleoprotein 1, C-terminal low-complexity region (Fmr1, Mus musculus, UniProt P35922)
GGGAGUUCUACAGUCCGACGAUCGUCCUGUGCUACACAUCGUAUGUACCGAAUCGGGGUUUUUGGUUUUUGGUUUUUGGGGAAAGUAUUAUGUUACGCCGUUCGGAUCUGCACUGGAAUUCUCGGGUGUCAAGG: -0.353
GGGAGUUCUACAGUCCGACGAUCCCUCAAGUCCUGUGCUACACAUCGUAUGUACCGAAUCGGGAGGGGAGGAGGGGAAAGUAUUAUGUUACGCCGUUCGGAUCUGCACUUCCAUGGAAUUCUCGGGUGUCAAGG: 1.23
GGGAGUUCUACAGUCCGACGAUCGCAGGAAGUAAAAACAAAUGGAAAUGCUUCGGAUAGUGGCAGCGGUGGGGGUUGCUAAGGAAAGGGUGGGAUGGGAGUGGGUAAAGAGUUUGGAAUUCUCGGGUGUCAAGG: 0.488
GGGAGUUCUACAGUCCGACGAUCCCUGUGCUACACAUCGUAUGUACCGAAUCGGGGAAAAAAAGGGGAAAGGGGAAAAAGGGGAAAGUAUUAUGUUACGCCGUUCGGAUCUGCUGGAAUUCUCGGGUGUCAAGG: 0.0667
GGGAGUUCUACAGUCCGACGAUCAGUCACUUUUUAAUUUUAUUUAUUAUUUCUCCUCUUAGACCGCAGGAUGGAAACAAGCCCACUGAGACUAGUCAACCUCAAUCUAGCACAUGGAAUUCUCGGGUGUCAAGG: 0.94
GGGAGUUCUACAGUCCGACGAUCCACAGACAACACGUACCCACACAGACACAGAGGGAAGGGGUUGGGAUGGGGACAGGGUGCACAGCAGGGCGGGGUAGGACCCCAGCCCCUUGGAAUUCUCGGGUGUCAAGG: 1.4
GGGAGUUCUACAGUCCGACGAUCACCAUGCAGGUGGGCAUCUUUGGGAAGUGGGGCAAGGGGGGGAUAGGGAGGGGGGUAACGCUUUGGGAACAGGUGGUCCCAGGUCGUUUCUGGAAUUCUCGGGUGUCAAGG: 0.357
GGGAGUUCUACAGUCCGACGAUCUUAAAACAUGGCAACUUGUAAUUGUUUUCUUUCUUAGGAACAUCAUUCAUGGCAGUGAUUCAGUAAAAAGUGCUGAAAAAGAAAUCAGCCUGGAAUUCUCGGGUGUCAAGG: 0.528
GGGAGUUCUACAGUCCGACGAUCUCCUCAAGUCCUGUGCUACACAUCGUAUGUACCGAAUCGGCGGGCGGCGGGAAAGUAUUAUGUUACGCCGUUCGGAUCUGCACUUCCAGCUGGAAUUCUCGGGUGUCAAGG: -0.191

Study 3 — method: RNA Bind-n-Seq; molecule type: RNA; matrix: in vitro; tested at: 365 nM; baseline: no-protein control; reading: higher = stronger binding; quantity: RBNS enrichment (R)
Target: RNA binding protein fox-1 homolog 2, RRM domain, GST-SBP tag (RBFOX2, Homo sapiens, UniProt O43251-10, residues 100-194)
Setting: natural RNA segment, single round, ends assumed
Target sequence (chain): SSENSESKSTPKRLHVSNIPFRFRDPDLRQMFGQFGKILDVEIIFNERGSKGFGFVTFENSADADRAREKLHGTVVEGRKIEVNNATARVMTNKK
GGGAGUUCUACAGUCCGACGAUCGCCCUCUGCUUUACUCUCAUGUGGCAAACGUGCGGCUCGUGGUGUGAGUGCCAGAAGCUGCCUCCGUGGUUUGGUCACCGUGUGCAUCGCACCGUGCUGUAAAUGUGGCAUGGAAUUCUCGGGUGCCAA: 1.07
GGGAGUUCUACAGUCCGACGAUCGUGCCUGUUCCUCCAUCCUGCUGCCCCCCUCCAGGCCUGCCAGGUGGCCCCUGAAGGUUGCUUUAAGGGGAAAGUAUGUUCUCAUGUCUUCACCCCUCCCUAGAUCUCACUGGAAUUCUCGGGUGCCAA: 0.453
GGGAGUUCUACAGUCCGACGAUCUCACAAGGGAAUAGAAGCAGAAGAAGCUGAGAGCCUCCCUAUUCCCAGAUGCCCUGGUGGAAUGACCUGCCUCUCUGCCGUUUCUGCCAACGUGUUGGUGCUAUAAGCUGUGGAAUUCUCGGGUGCCAA: 0.508
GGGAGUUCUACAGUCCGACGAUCUGUGUGGUGGCCCUGGCACUGCAGAGACUGGUCCGGGCUGUCAGGAGGCGGGAGGGGGCAGCGCUGGGCCUCGUGUCGCUUGUCGUCGUCCGUCCUGUGGGCGCUCUGCCUGGAAUUCUCGGGUGCCAA: 0.482
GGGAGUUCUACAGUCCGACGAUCCACAAACUCAGUCCUUAAAACCCCAGGAGUUGAGGGGAAGUGUUGGCACAGUGAUGGCCUGUGUCACCGUGUAGUGUCAUAGGCCAUCACUGUGCCAGAGCAAGCACGCUUGGAAUUCUCGGGUGCCAA: 0.3
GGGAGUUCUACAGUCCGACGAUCUUCAACUGGGGGAAAAUAAAACUUUGAGCAUUUCCCUUGGAACUUGAGAUCAGAUCAUAACUCACUUGCCCAGAGGCAGCAGAAAUCUGAUCCUACUACUGGAGCUUAAAUGGAAUUCUCGGGUGCCAA: 0.288
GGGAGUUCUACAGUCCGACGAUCUACUGGGGCACUGUUACCUCCAGAAGGCACUACUUCUAUCGUAGGGCGAGUCUAAUUGUUAGACAUUUCUUACUUAUAGUGAUUGGAUUCUGCUUUCCUAUGACUUCUGCUGGAAUUCUCGGGUGCCAA: 0.271
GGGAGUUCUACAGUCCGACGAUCGCUUUCUUCAUUCAGUGUGCCAUCUUUGAUCUUACAGCGGUGCCUGUGGAAGGACAGGGUGAGAAAAGCUCGGAGAGAGAAAGAAUCGAGGGCAGGAGAGAGUGGACAGCUGGAAUUCUCGGGUGCCAA: 0.867

Study 4 — method: protein-binding microarray; molecule type: double-stranded DNA, one strand shown; matrix: in vitro; tested at: 2540 nM top; setting: 60-bp whole probe; together with: salmon DNA 0.4 mg/ml; baseline: random background probes; reading: higher = stronger binding; quantity: fitted relative affinity; all sequences stand within: GCCTAGCAC … GTCTTGATTCGCTTGACGCTGCTG
Target: Interferon regulatory factor 3, full length, phosphomimetic (IRF3, Homo sapiens, UniProt Q14653, residues 1-427, S386D/S396D/S398D/S402D/T404D/S405D)
Target sequence (chain): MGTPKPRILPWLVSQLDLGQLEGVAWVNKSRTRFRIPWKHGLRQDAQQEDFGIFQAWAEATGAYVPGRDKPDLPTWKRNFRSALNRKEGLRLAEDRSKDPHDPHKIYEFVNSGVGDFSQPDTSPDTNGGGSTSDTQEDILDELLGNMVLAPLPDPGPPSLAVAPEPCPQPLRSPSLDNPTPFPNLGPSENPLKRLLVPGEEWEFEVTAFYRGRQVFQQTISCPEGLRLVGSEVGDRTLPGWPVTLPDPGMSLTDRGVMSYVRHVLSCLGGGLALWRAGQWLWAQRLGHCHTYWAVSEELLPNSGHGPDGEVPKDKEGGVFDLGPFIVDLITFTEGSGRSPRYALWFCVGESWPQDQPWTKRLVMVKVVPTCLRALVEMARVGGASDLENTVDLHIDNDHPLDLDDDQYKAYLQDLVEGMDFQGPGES
TCAGGTTTCCAAATTGTACTGTGCTAG: 6.65 z-score
CTCTCTTCACATATAATTTTGTGCTAG: 0.967 z-score
TTAGATTTCAGTCTCTATTAGTGCTAG: 2.48 z-score
TTTGTTTCCATTTTCTGAATGTGCTAG: 9.29 z-score
TTAGGACTGGGTTTCGGTTCGTGCTAG: 4.25 z-score
GACGATATCAATATCGAGACGTGCTAG: 0.655 z-score
TTAGGACTGGTACTGGGTTAGTGCTAG: -0.703 z-score
TTCGGTATCGACACTGGGTTAGTGCTA: 1.01 z-score
TTAGATTTCCTACTGCTTTAGTGCTAG: 1.77 z-score
GACGGCTTCGGTCTCGGGACGTGCTAG: -0.108 z-score
GACGATTTCGGGACTGGAGAGGTGCTA: 1.69 z-score
GACGTTCTCCTTCTCCTGACGTGCTAG: 3.63 z-score
TTAGGTATCATTATCCTTTAGTGCTAG: 3.89 z-score
GACGGTTCCCGTTTCCTGACGTGCTAG: 4.06 z-score
TGAGATTTCGGGTATCGATTAGTGCTA: 1.4 z-score
TTAGAACTGGGGTATTGATTAGTGCTA: -0.697 z-score
GACGAACTGGGCACTGGAGACGTGCTA: -0.608 z-score
TTAGGACTGGATTATCGGTTAGTGCTA: 0.0862 z-score
TCAGCTTTATGTGTAGGACTGTGCTAG: -0.0518 z-score

Some of these lines once more (study 4):
CTCTCTTCACATATAATTTTGTGCTAG: 0.967 z-score
TTAGATTTCAGTCTCTATTAGTGCTAG: 2.48 z-score
TTTGTTTCCATTTTCTGAATGTGCTAG: 9.29 z-score
TTAGGACTGGGTTTCGGTTCGTGCTAG: 4.25 z-score
GACGATATCAATATCGAGACGTGCTAG: 0.655 z-score
TTAGGACTGGTACTGGGTTAGTGCTAG: -0.703 z-score
